# Results gathered from unrelated publications.
# Every numbered part comes from another study and shows a few of its results, in no order.

# Series 1
# Target: Prothrombin, mature alpha-thrombin (F2, Homo sapiens, UniProt P00734)
# Method: aptamer microarray, sandwich
# Molecule type: DNA with 2'F-ANA
# Medium: in vitro
# Tested at: 200 nM
# Setting: whole 15-mer aptamer, many near background
# Together with: Cy3 exosite-II aptamer, 400 nM
# Reading: higher = stronger binding
Oligonucleotide,mean fluorescence intensity [a.u.]
GGTTGGTGTGGTTGG (2'F-ANA at 1 4 5 6 8 11 13),49.5
GGTTGGTGTGGTTGG (2'F-ANA at 1 2 5 6 9 10 11),57.5
GGTTGGTGTGGTTGG (2'F-ANA at 1 3 5 8 9 11 12 14 15),47.1
GGTTGGTGTGGTTGG (2'F-ANA at 4 6 7 8 9 11 12 15),350

# Series 2
# Target: Transcription factor Sp1 (SP1, Homo sapiens, UniProt P08047, residues 1-785, full length assumed)
# Chain of UniProt P08047 (whole entry, looked up): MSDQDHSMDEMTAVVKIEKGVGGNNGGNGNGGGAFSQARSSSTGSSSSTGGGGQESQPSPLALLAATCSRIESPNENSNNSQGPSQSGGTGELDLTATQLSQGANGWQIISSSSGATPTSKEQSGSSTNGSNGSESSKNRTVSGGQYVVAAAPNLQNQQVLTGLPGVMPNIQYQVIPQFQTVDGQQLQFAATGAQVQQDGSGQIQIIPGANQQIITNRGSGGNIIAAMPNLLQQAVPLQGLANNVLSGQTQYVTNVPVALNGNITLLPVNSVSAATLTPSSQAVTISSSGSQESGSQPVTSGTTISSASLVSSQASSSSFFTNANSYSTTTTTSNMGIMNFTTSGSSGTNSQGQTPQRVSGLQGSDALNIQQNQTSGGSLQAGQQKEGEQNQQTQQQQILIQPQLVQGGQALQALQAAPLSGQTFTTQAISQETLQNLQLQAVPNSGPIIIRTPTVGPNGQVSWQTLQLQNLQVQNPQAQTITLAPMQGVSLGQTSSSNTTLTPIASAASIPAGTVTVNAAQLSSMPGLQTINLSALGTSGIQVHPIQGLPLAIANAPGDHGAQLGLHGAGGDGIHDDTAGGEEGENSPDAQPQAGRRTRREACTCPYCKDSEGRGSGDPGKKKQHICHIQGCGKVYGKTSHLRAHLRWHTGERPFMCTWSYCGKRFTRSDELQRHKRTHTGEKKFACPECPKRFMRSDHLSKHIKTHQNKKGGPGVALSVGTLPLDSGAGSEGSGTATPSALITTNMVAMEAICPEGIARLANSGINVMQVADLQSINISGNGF
# Method: protein-binding microarray
# Molecule type: double-stranded DNA, one strand shown
# Medium: in vitro
# Tested at: not given
# Setting: k-mer, scored over probes, only values ≥0.25
# Reading: higher = stronger binding
Oligonucleotide,E-score
ATGATACA,0.251
CCCGCCTA,0.313
GGGCGGTA,0.27

# Series 3
# Target: Interferon regulatory factor 7, full length, phosphomimetic (IRF7, Homo sapiens, UniProt Q92985, residues 1-503, S471D/S472D/S475D/S476D/S477D/S483D/S484D/S487D)
# Chain of UniProt Q92985 (whole entry, unmodified, looked up): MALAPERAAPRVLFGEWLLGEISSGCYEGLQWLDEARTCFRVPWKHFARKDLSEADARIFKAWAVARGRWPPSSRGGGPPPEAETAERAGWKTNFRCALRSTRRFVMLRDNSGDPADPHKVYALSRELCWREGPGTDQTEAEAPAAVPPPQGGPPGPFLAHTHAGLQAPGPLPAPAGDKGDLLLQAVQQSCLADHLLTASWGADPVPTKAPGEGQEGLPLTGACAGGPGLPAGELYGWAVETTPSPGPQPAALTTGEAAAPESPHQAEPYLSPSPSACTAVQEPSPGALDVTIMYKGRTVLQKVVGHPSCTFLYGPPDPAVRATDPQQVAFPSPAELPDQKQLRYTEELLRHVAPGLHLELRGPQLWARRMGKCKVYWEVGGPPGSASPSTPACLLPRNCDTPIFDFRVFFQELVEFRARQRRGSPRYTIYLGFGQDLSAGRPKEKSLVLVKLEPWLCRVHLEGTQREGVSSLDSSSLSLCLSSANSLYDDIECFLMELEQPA
# Method: protein-binding microarray
# Molecule type: double-stranded DNA, one strand shown
# Medium: in vitro
# Tested at: 2200 nM top
# Setting: 60-bp whole probe
# Together with: salmon DNA 0.4 mg/ml
# Relative to: random background probes
# Reading: higher = stronger binding
Oligonucleotide,fitted relative affinity
GCCTAGCACGAGGGACTGCTTTTCCTGACGTGCTAGGTCTTGATTCGCTTGACGCTGCTG,0.361 z-score
GCCTAGCACGACTATCTCAGTTTCGAGACGTGCTAGGTCTTGATTCGCTTGACGCTGCTG,3.6 z-score
GCCTAGCACGACGGTATCCTTATCCTAACGTGCTAGGTCTTGATTCGCTTGACGCTGCTG,1.2 z-score
GCCTAGCACTGATTGGTTGAACATGAACTGTGCTAGGTCTTGATTCGCTTGACGCTGCTG,0.331 z-score

# Further values, each from its own experiment
Molecule,target,assay,test system,conditions,how to read,quantity,value
"PhoQ, residues 284 288 289 292 302 303 SACGEM","PhoP, residues 12 14 15 18 19 NNFVT (Escherichia coli, UniProt P23836)","Sort-seq, item: YFP reporter",E. coli,"PhoQ-PhoP variant library, together with: 10 µM Mg2+","relative to: high Mg2+ state, higher = stronger signaling",fold induction,0.933

# A few entries again (series 1):
Oligonucleotide,mean fluorescence intensity [a.u.]
GGTTGGTGTGGTTGG (2'F-ANA at 4 6 7 8 9 11 12 15),350
